Measured values gathered from unrelated publications.
Numbered parts are unrelated; each lists some results of a single study. Substitutions count along the parent as printed.

Set 1
Target: Interferon regulatory factor 5, full length, phosphomimetic (IRF5, Homo sapiens, UniProt Q13568-2, residues 1-514, K96S/S451D/S453D/S456D/S462D)
Method: protein-binding microarray
Molecule type: double-stranded DNA, one strand shown
Medium: in vitro
Concentration: 250 nM
Notes: 60-bp whole probe
Together with: salmon DNA 0.4 mg/ml
Reference: random background probes
Reading: higher = stronger binding
Shared flanks, not repeated: GCCTAGCAC … GTCTTGATTCGCTTGACGCTGCTG
Oligonucleotide | log fluorescence [z-score]
TCATACATGTGTTTAAGACTGTGCTAG | 0.282
GTAGATCTCAGACTGGATTAGTGCTAG | -0.331
GACGGTCTCCTTATCCTGTCGTGCTAG | -0.0513
GACGGTATCCTACTACTGACGTGCTAG | 0.0507
TGAGGACTGGACTTTCGGTTAGTGCTA | 9.3
TTAGGAATGCTTTTCCTTTAGTGCTAG | 0.321
GACGAACTGGGGCATCGAGACGTGCTA | -0.455

Set 2
Target: CCNF, cyclin fold, Cln2 fusion (human)
Method: yeast growth competition, sequencing
Medium: yeast
Notes: strong parent motif
Reference: not given
Reading: higher = stronger binding
Starting sequence: WEE1 docking peptide (human); HKTFRKLRLFDTP
Variant | normalised enrichment score
P13Q | 1.92
T12S | 2.95
L7Y | 2.53
R5A | 0.27
T12K | 2.22
F10I | 2.09

Set 3
Target: Histone acetyltransferase KAT6A, both winged helices, GST fusion (KAT6A, Homo sapiens, UniProt Q92794, residues 1-181)
Method: protein binding microarray
Molecule type: double-stranded DNA, one strand shown
Medium: in vitro
Concentration: not given
Notes: 8-mer, flanks averaged, mean of 2 arrays, mostly near background
Reference: not given
Reading: higher = stronger binding
Residues (chain): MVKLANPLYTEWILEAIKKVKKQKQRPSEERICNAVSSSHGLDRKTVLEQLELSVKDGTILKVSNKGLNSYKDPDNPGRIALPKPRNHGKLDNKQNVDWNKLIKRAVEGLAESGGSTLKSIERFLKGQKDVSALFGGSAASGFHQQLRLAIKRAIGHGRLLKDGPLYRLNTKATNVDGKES
Oligonucleotide | E-score
GGAACAAA | -0.176
GACCCGTC | 0.175
AATTAAGC | -0.0161
GACTGTGC | 0.0745
CGAATTTC | -0.00751
CATGTTCG | 0.0239

Other studies, line by line
Substance | target | test | system | conditions | scale | endpoint | value
PhoQ, residues 284 288 289 292 302 303 AGGLSV | PhoP, residues 12 14 15 18 19 GHCSL (Escherichia coli, UniProt P23836) | Sort-seq, item: YFP reporter | E. coli | PhoQ-PhoP variant library, together with: 10 µM Mg2+ | reference: high Mg2+ state, higher = stronger signaling | fold induction | 4.25

Some of these lines once more (set 1):
Oligonucleotide | log fluorescence [z-score]
GACGGTCTCCTTATCCTGTCGTGCTAG | -0.0513
GACGAACTGGGGCATCGAGACGTGCTA | -0.455
GTAGATCTCAGACTGGATTAGTGCTAG | -0.331
